Measured values pooled from the literature.
Compare with care: the assays were run in different laboratories.
Organism: Bacillus subtilis

`CC(C)C[C@@H]1NC(=O)[C@H](CCCCN)NC(=O)CSC[C@@H](C(=O)N[C@@H](CCCCN)C(N)=O)NC(=O)[C@H](CCCCN)NC(=O)[C@H](CC(C)C)NC(=O)[C@H](CC(C)C)NC(=O)[C@@H]2CSCC(=O)N[C@@H](CCCCN)C(=O)N[C@@H](CC(C)C)C(=O)N[C@@H](CCCCN)C(=O)N[C@@H](CCCCNC(=O)[C@H](CCCCN)NC1=O)C(=O)N[C@@H](CCCCN)C(=O)N[C@@H](CC(C)C)C(=O)N[C@@H](CC(C)C)C(=O)N2` has an MIC of 16 µg/mL (BR 151; 18 h).
`CC[C@H](C)[C@H](NC(=O)[C@@H](Cc1ccccc1)NC)C(=O)N[C@@H](CO)C(=O)N[C@H](CCC(N)=O)C(=O)N[C@@H](C(=O)N[C@H](C(=O)OC[C@H](N)C(=O)N[C@H]1C(=O)N[C@@H](C)C(=O)N[C@@H](C2CCCCC2)C(=O)N[C@@H]([C@@H](C)CC)C(=O)O[C@H]1C)[C@@H](C)CC)[C@@H](C)CC` gave an MIC of 0.0625 µg/mL (broth microdilution; ATCC 6051, Mueller-Hinton broth; 16 h, 37 °C).
`CN1C(=O)[C@@H]2NC(=O)[C@@H]3NC(=O)[C@@H](c4ccc(O)cc4)NC(=O)[C@H](NC(=O)C(NCc4cc(F)cc(F)c4F)c4ccc(O)cc4)Cc4c[nH]c5cc(ccc45)-c4cc3cc(c4O)Oc3ccc(cc3)C[C@H]1C(=O)N[C@@H](C(=O)O)c1ccc(O)c(c1)Oc1ccc2cc1` (some centres unmarked) gave an MIC of 4 µg/mL (168, Mueller-Hinton broth).
`CC[C@H](C)[C@H](NC(=O)[C@H](CCCCN)NC(=O)[C@H](CCCNC(=N)N)NC(=O)[C@@H](NC(=O)[C@H](CC(C)C)NC(=O)[C@H](CCCCN)NC(=O)[C@H](CC(C)C)NC(=O)[C@@H](NC(=O)[C@H](CCCCN)NC(=O)CNC(=O)[C@H](Cc1ccccc1)NC(=O)[C@@H](N)Cc1ccccc1)C(C)C)[C@@H](C)CC)C(=O)N[C@@H](Cc1ccccc1)C(N)=O` has an MIC of > 100 µM (broth microdilution).
With `CC[C@H](C)[C@H](NC(=O)[C@H](CCCN)NC(=O)[C@H](CC(N)=O)NC(=O)[C@H](CC(C)C)NC(=O)[C@H](Cc1ccccc1)NC(=O)[C@H](CCCN)NC(=O)[C@H](CCCCNC(=N)N)NC(=O)[C@H](CC(C)C)NC(=O)[C@H](CC(C)C)NC(=O)[C@H](CCCN)NC(=O)[C@H](CCCCNC(=N)N)NC(=O)[C@H](CC(C)C)NC(=O)CNC(C)=O)C(=O)N[C@@H](CCCN)C(=O)N[C@@H](CCCCNC(=N)N)C(N)=O` the MIC was 3.12 µM (broth microdilution; ATCC 6633).
With `NCCCC[C@H](NC(=O)[C@@H]1CSCC(=O)N[C@@H](CCCCN)C(=O)N[C@@H](Cc2ccccc2)C(=O)N[C@@H](CCCCN)C(=O)N[C@H]2CCCCNC(=O)[C@H](CCCCN)NC(=O)[C@H](Cc3ccccc3)NC(=O)[C@H](CCCCN)NC(=O)CSC[C@H](NC(=O)[C@H](Cc3ccccc3)NC(=O)[C@H](Cc3ccccc3)NC(=O)[C@H](CCCCN)NC2=O)C(=O)N[C@@H](Cc2ccccc2)C(=O)N[C@@H](Cc2ccccc2)C(=O)N[C@@H](Cc2ccccc2)C(=O)N1)C(N)=O` the MIC was 2 µg/mL (BR 151; 18 h).
`CCCCCCCCCCCC[S+]([O-])CC1OC(OC2C(N)CC(N)C(OC3OC(CN)C(O)CC3N)C2O)C(O)C(N)C1O` (mixture of isomers) gave an MIC of > 150 µg/mL (168 AAC(6')/APH(2'') plasmid).
`CC[C@H](C)[C@H](NC(=O)[C@@H](Cc1ccccc1)NC)C(=O)N[C@@H](CO)C(=O)N[C@H](CCCNC(=N)N)C(=O)N[C@@H](C(=O)N[C@H](C(=O)N[C@@H](CO)C(=O)N[C@H]1C(=O)N[C@@H](C)C(=O)N[C@@H](CC(C)C)C(=O)N[C@@H]([C@@H](C)CC)C(=O)O[C@H]1C)[C@@H](C)CC)[C@@H](C)CC` gave an MIC of ≤ 0.0078 µg/mL (broth microdilution; ATCC 6051, Mueller-Hinton broth; 16 h, 37 °C).
`CN1C(=O)[C@@H]2NC(=O)[C@@H]3NC(=O)[C@@H](c4ccc(O)cc4)NC(=O)[C@H](NC(=O)C(NCc4ccc(Br)cc4)c4ccc(O)cc4)Cc4c[nH]c5cc(ccc45)-c4cc3cc(c4O)Oc3ccc(cc3)C[C@H]1C(=O)N[C@@H](C(=O)O)c1ccc(O)c(c1)Oc1ccc2cc1` (some centres unmarked) gave an MIC of 2 µg/mL (168, Mueller-Hinton broth).
`CC(C)C[C@@H]1NC(=O)[C@H](CCCCN)NC(=O)CSC[C@@H]2NC(=O)[C@H](CC(C)C)NC(=O)[C@H](CC(C)C)NC(=O)[C@H](CCCCN)NC(=O)[C@H](CCCCNC(=O)[C@H](CCCCN)NC1=O)NC(=O)[C@H](CCCCN)NC(=O)[C@H](CC(C)C)NC(=O)[C@H](CCCCN)NC(=O)CSC[C@@H](C(=O)N[C@@H](CCCCN)C(N)=O)NC(=O)[C@H](CCCCN)NC(=O)[C@H](CC(C)C)NC(=O)[C@H](CC(C)C)NC2=O` has an MIC of 32 µg/mL (BR 151; 18 h).
For `CC[C@H](C)[C@H](N)C1=N[C@H](C(=O)N[C@@H](CC(C)C)C(=O)N[C@H](CCC(=O)O)C(=O)N[C@H](C(=O)N[C@H]2CCCCNC(=O)[C@H](CC(N)=O)NC(=O)[C@@H](CC(=O)O)NC(=O)[C@H](Cc3c[nH]cn3)NC(=O)[C@@H](Cc3ccccc3)NC(=O)[C@H](Cc3ccccc3)NC(=O)[C@@H](CCCN)NC2=O)[C@@H](C)CC)CS1`, the MIC was 32 µg/mL (168; 18 h, 37 °C, added: ZnSO4 0.3 mM).
With `CC[C@H](C)[C@H](NC(=O)CNC(=O)[C@H](CCCCN)NC(=O)[C@H](C)NC(=O)[C@H](CCC(=O)O)NC(=O)[C@H](Cc1ccccc1)NC(=O)[C@H](CO)NC(=O)[C@H](CC(C)C)NC(=O)[C@@H](NC(=O)[C@H](CC(=O)O)NC(=O)[C@H](C)NC(=O)[C@@H](NC(=O)[C@@H](N)C(C)C)[C@@H](C)O)C(C)C)C(=O)N[C@@H](C)C(=O)N[C@H](C(=O)N[C@@H](CC(N)=O)C(=O)N[C@@H](Cc1c[nH]cn1)C(=O)N[C@@H](CO)C(=O)N[C@@H](C)C(=O)N[C@H]1CSSC[C@@H]2NC(=O)[C@H](C(C)C)NC(=O)CNC(=O)[C@H](CC(N)=O)NC(=O)[C@H](CCC(N)=O)NC(=O)[C@H](C)NC(=O)[C@H](CO)NC(=O)CNC(=O)CNC(=O)[C@H](CCCCN)NC(=O)[C@H](CCCCN)NC(=O)[C@H](CCCNC(=N)N)NC(=O)[C@H](CC(C)C)NC(=O)[C@H](C)NC(=O)[C@H]([C@@H](C)CC)NC(=O)[C@H](CSSC[C@@H](C(=O)N[C@@H](CCCNC(=N)N)C(=O)N[C@@H](CC(N)=O)C(=O)O)NC(=O)[C@H](C(C)C)NC2=O)NC(=O)[C@H](Cc2c[nH]cn2)NC(=O)[C@H](CC(C)C)NC(=O)[C@H](C)NC1=O)C(C)C` the MIC was > 100 µM (broth microdilution; KCTC 3068; 16 h, 37 °C).
`CC[C@H](C)[C@@H]1NC(=O)[C@@H](NC(=O)[C@H](CCCCN)NC(=O)[C@H](CC(C)C)NC(=O)[C@H](CC(C)C)NC(=O)CNC(C)=O)CN(C)C(=O)c2ccc(=O)n(c2)CC[C@@H](C(=O)N[C@@H](CC(C)C)C(N)=O)NC(=O)[C@H]([C@@H](C)O)NC(=O)[C@H](CCCCN)NC1=O` has an MIC of 31 µg/mL (ATCC 6051, Mueller-Hinton broth; 20 h, 37 °C).
The MIC of `CN[C@@H]1[C@H](O)[C@H](NC)[C@H]2O[C@]3(O)[C@H](O[C@@H]2[C@H]1O)O[C@H](C)C[C@@]3(O)CNCc1ccc(OC(F)(F)F)cc1` is reported as 100 µg/mL (ATCC 23857).
